# Assay results of several laboratories.
# Each line is one published result; not all experiments were run side by side. Values joined by “and” are separate records of one study, mostly repeats; a detail may differ. ± marks the error that the study gave.
Substance,tested on,assay,test system,conditions,how to read,measurement,value
Nc1ncc(-c2cc(-c3cnn(CC(F)(F)F)c3)ncc2F)nc1C(=O)NC1CNCC(F)C1 (stereo not drawn),CDKL5,KINOMEscan,,1 µM,relative to: DMSO control,remaining binding,100%
CCCC[C@H](NC(=O)COCCOCCNC(=O)CN1CCN(CC(=O)O)CCN(CC(=O)O)CC1)C(=O)N[C@H]1CC(=O)NCCCC[C@@H](C(N)=O)NC(=O)[C@H](Cc2c[nH]c3ccccc23)NC(=O)[C@H](CCCNC(=N)N)NC(=O)[C@@H](Cc2ccccc2)NC(=O)[C@H](Cc2c[nH]cn2)NC1=O [technetium-99m labelled],,,"C57 mouse, kidneys","intravenous, 0.037 MBq, 2 h",,tissue uptake,< 1.8 %ID/g
CC(C)C[C@H](NC(=O)[C@@H](CCCCNC(=O)[C@@H](Cc1ccccc1)NC(=O)CCCCCNC(=O)CN1CCN(CC(=O)O)CCN(CC(=O)O)CCN(CC(=O)O)CC1)NC(=O)[C@H](Cc1ccc(O)cc1)NC(=O)[C@H](CO)NC(=O)[C@H](Cc1c[nH]c2ccccc12)NC(=O)[C@H](Cc1c[nH]cn1)NC(=O)[C@@H]1CCC(=O)N1)C(=O)N[C@@H](CCCNC(=N)N)C(=O)N1CCC[C@H]1C(=O)NCC(N)=O [indium-111 labelled],,,"athymic nude mouse, female, pituitary","intravenous, 0.037 MBq, 4 h",,tissue uptake,24.3 ± 8.32 %ID/g
C=C1CC[C@H](OCCCNC(=O)CCOCCOCCOCCOCCOCCOCCOCCOCCOCCOCCOCCOCCOCCOCCOCCOCCOCCOCCOCCOCCOCCOCCOCCOCCOCCOCCOCCOCCOCCOCCOCCOCCOCCOCCOCCOCCNC(=O)CCN2C(=O)CC(SC[C@H](NC(=O)[C@H](Cc3ccccc3)NC(=O)[C@H](CC(N)=O)NC(=O)[C@H](Cc3c[nH]cn3)NC(=O)[C@@H](NC(=O)[C@H](CC(=O)O)NC(=O)[C@H](CCC(N)=O)NC(=O)[C@H](CC(C)C)NC(=O)[C@H](CCCCN)NC(=O)[C@H](CCCCN)NC(=O)[C@H](CCCNC(=N)N)NC(=O)[C@H](CC(C)C)NC(=O)[C@H](Cc3c[nH]c4ccccc34)NC(=O)[C@H](CCC(=O)O)NC(=O)[C@@H](NC(=O)[C@H](CCCNC(=N)N)NC(=O)[C@H](CCC(=O)O)NC(=O)[C@H](CCSC)NC(=O)[C@H](CO)NC(=O)[C@H](CC(N)=O)NC(=O)[C@H](CC(C)C)NC(=O)[C@H](Cc3c[nH]cn3)NC(=O)[C@H](CCCCN)NC(=O)CNC(=O)[C@H](CC(C)C)NC(=O)[C@H](CC(N)=O)NC(=O)[C@H](Cc3c[nH]cn3)NC(=O)[C@H](CCSC)NC(=O)[C@H](CC(C)C)NC(=O)[C@H](CCC(N)=O)NC(=O)[C@@H](NC(=O)[C@H](CCC(=O)O)NC(=O)[C@H](CO)NC(=O)[C@@H](NC(=O)[C@@H](N)CO)C(C)C)[C@@H](C)CC)C(C)C)C(C)C)C(=O)O)C2=O)C/C1=C/C=C1\CCC[C@]2(C)[C@@H]([C@H](C)CCCC(C)(C)O)CC[C@@H]12 (stereo partly drawn),,,"male cynomolgus monkey, plasma","subcutaneous, 0.007 mg/kg, single dose",,half-life,24 h
Cc1cc(-c2ccc(NC(=O)CC[C@H](NC(=O)CN3CCN(CC(=O)O)CCN(CC(=O)O)CCN(CC(=O)O)CC3)C(=O)NCC(=O)N[C@@H](CC(N)=O)C(=O)N[C@H](C(=O)N[C@H](C(=O)N[C@@H](CCCNC(=N)N)C(=O)N[C@@H](CCC(N)=O)C(=O)O)C(C)C)C(C)C)c(C)c2)ccc1/N=N/c1ccc2c(S(=O)(=O)O)cc(S(=O)(=O)O)c(N)c2c1O [copper-64 labelled],,,"nude mouse, 143B xenograft, tumour","intravenous, 8 h",,tissue uptake,6.5 ± 0.88 %ID/g
Cc1ncsc1-c1ccc(C(C)NC(=O)C2CC(O)CN2C(=O)C(NC(=O)CCCCCCCCCCN2CCCC(Nc3ncc(Cl)c(Nc4ccccc4S(=O)(=O)C(C)C)n3)C2)C(C)(C)C)cc1 (stereo not drawn),22Rv1,"RNA-seq, refers to: USP54 mRNA",,concentration not given,relative to: DMSO,log2 fold change,-1.01
C=CC(=O)Nc1cccc(Cn2ncc3cnc(Nc4cnn(CCOC)c4)nc32)c1,IRAK3 human,"binding, KINOMEscan",,100 nM,lower = stronger binding,percent of control,75%
nucleophosmin T78E,,"far-UV CD, CDSSTR","Tris buffer, NaCl","pH 7.5, room temperature",,beta-strand content,14%
CCCC[C@H](NC(=O)CCCCCCCNC(=O)CN1CCN(CC(=O)O)CCN(CC(=O)O)CC1)C(=O)N[C@H]1CC(=O)NCCCC[C@@H](C(N)=O)NC(=O)[C@H](Cc2c[nH]c3ccccc23)NC(=O)[C@H](CCCNC(=N)N)NC(=O)[C@@H](Cc2ccccc2)NC(=O)[C@H](Cc2c[nH]cn2)NC1=O [technetium-99m labelled],,,"C57 mouse, stomach","intravenous, 0.037 MBq, 2 h",,tissue uptake,0.95 ± 0.5 %ID/g
COC1CN([C@H]2CC[C@H]([C@@]3(C)Oc4c(Cl)cc(C(=O)NCc5c(SC)cc(C)[nH]c5=O)c(C)c4O3)CC2)C1,,"RNA-seq, refers to: RASL10A mouse homolog","mouse, HT-1376 xenograft, whole blood",dose not given,relative to: vehicle,log2 fold change,0.184
CC(C)C[C@H](NC(=O)[C@@H](CCCCNC(=O)CCCCCCCCCCNC(=O)CN1CCN(CC(=O)O)CCN(CC(=O)O)CCN(CC(=O)O)CC1)NC(=O)[C@H](Cc1ccc(O)cc1)NC(=O)[C@H](CO)NC(=O)[C@H](Cc1c[nH]c2ccccc12)NC(=O)[C@H](Cc1cnc[nH]1)NC(=O)[C@@H]1CCC(=O)N1)C(=O)N[C@@H](CCCN=C(N)N)C(=O)N1CCC[C@H]1C(=O)NCC(N)=O [indium-111 labelled],,,"athymic nude mouse, female, intestines","intravenous, 0.037 MBq, 1 h",,tissue uptake,1.49 ± 0.32 %ID
CC(C)C[C@H](NC(=O)[C@H](Cc1ccc(O)cc1)NC(=O)[C@@H](CCCNC(=N)N)NC(=O)[C@@H](CO)NC(=O)[C@H](Cc1ccccc1)NC(=O)[C@H](CC1CCCCC1)NC(=O)[C@H](CC(=O)O)NC(=O)CN1CCN(CC(=O)O)CCN(CC(=O)O)CCN(CC(=O)O)CC1)C(=O)N[C@@H](Cc1c[nH]c2ccccc12)C(=O)N[C@@H](CO)C(=O)O [copper-64 labelled],,,"human, lower large intestine","concentration not given, 3 h",,activity concentration,1470 Bq/mL and 1970 Bq/mL and 1690 Bq/mL and 907 Bq/mL and 1150 Bq/mL and 1450 Bq/mL

# Some of these lines once more:
Substance,tested on,assay,test system,conditions,how to read,measurement,value
CCCC[C@H](NC(=O)COCCOCCNC(=O)CN1CCN(CC(=O)O)CCN(CC(=O)O)CC1)C(=O)N[C@H]1CC(=O)NCCCC[C@@H](C(N)=O)NC(=O)[C@H](Cc2c[nH]c3ccccc23)NC(=O)[C@H](CCCNC(=N)N)NC(=O)[C@@H](Cc2ccccc2)NC(=O)[C@H](Cc2c[nH]cn2)NC1=O [technetium-99m labelled],,,"C57 mouse, kidneys","intravenous, 0.037 MBq, 2 h",,tissue uptake,< 1.8 %ID/g
CC(C)C[C@H](NC(=O)[C@@H](CCCCNC(=O)[C@@H](Cc1ccccc1)NC(=O)CCCCCNC(=O)CN1CCN(CC(=O)O)CCN(CC(=O)O)CCN(CC(=O)O)CC1)NC(=O)[C@H](Cc1ccc(O)cc1)NC(=O)[C@H](CO)NC(=O)[C@H](Cc1c[nH]c2ccccc12)NC(=O)[C@H](Cc1c[nH]cn1)NC(=O)[C@@H]1CCC(=O)N1)C(=O)N[C@@H](CCCNC(=N)N)C(=O)N1CCC[C@H]1C(=O)NCC(N)=O [indium-111 labelled],,,"athymic nude mouse, female, pituitary","intravenous, 0.037 MBq, 4 h",,tissue uptake,24.3 ± 8.32 %ID/g
